Assay results pooled from the literature.
Protocols differ between the studies behind these lines. “And” joins repeats or separate records; there may be more than shown. Numbers after ± are the reported error.

SMILES	cell line	assay	setting	how to read	endpoint	value
COc1cc(N(C)CCN(C)C)c(NC(=O)/C=C/c2ccc(C#N)cc2)cc1Nc1nccc(-c2cn(C)c3ccccc23)n1	NCI-H1975	cell growth or viability, MTT	0.5 µM, 72 h		inhibition	67.7%
CN1CCCNC(=O)c2cccc(c2)C(=O)NCCCN(C)CCCNc2cccc3c2C(=O)c2cccc(c2C3=O)NCCC1	SAS	RNA-seq, refers to: NRSN2-AS1 mRNA	1 µM, 6 h	baseline: untreated cells	log2 fold change	2.42
Cc1ncsc1-c1ccc(C(C)NC(=O)C2CC(O)CN2C(=O)C(NC(=O)CCCCCCCCCCN2CCCC(Nc3ncc(Cl)c(Nc4ccccc4S(=O)(=O)C(C)C)n3)C2)C(C)(C)C)cc1 (stereo not shown)	22Rv1	RNA-seq, refers to: ZNF546 mRNA	concentration not given	baseline: DMSO	log2 fold change	-2.46
CC(C)c1ccc(N(C)c2ccc3c(c2)OCC[C@H]3CNc2cnccc2C(=O)O)cc1	NIH:OVCAR-3	cell growth, CellTiter-Glo	7 days		IC50	≥ 10000 nM
Cc1ccc(C(=O)/C=C/c2ccccc2)s1	HOP-92	SRB	10 µM		growth inhibition	< 0%
C1=[N+]2CCCC[N+]3=Cc4ccc5[n]4[Au-]23[n]2c1ccc2-c1nc2ccccc2nc1-5.F[P-](F)(F)(F)(F)F	HCC 2998	NCI60 five-dose screen			TGI	4.48 -log M
N#Cc1cccc(/C=C/C(=O)c2ccc(O)cc2)c1	U-87 MG	refers to: MAP2	concentration not given	baseline: untreated	fold change	94.3
CN1CCC(N[C@H]2CCc3[nH]c4c(C(N)=O)ccc(-c5ccccc5Cl)c4c3C2)CC1	RKO	cell growth or viability			IC50	826 nM
CC(=O)NCCCN(C)CCCNc1cccc2c1C(=O)c1cccc(NCCCN(C)CCCNC(C)=O)c1C2=O	SAS	RNA-Seq, refers to: HMGN2 mRNA	1 µM, 24 h	baseline: untreated cells	log2 fold change	0.295
O=C(C[Se]C(=O)c1cc2ccccc2s1)Nc1cccc(C(F)(F)F)c1	NCI60 melanoma subpanel	total growth inhibition, inhibitor	five-dose		mean TGI	2930 nM
COc1ccc(CSC2C3=C(CCCC3=O)Oc3ccc(Br)cc32)cc1 (stereo not shown)	3T3-L1 preadipocytes	adipogenesis, Oil Red O staining	IC20, 14 days, single replicate		lipid content	0.823 OD492 and 0.935 OD492 and 0.741 OD492
O=C(c1cncc(N2Cc3cnn(Cc4ccc(F)cc4)c3C2)n1)N1CCOCC1	HEK293 expressing GluA1 and GluA2	glutamate excitotoxic cell death, CellTox Green	together with: glutamate		IC50	855 nM
C[C@@H]1Cc2c([nH]c3ccccc23)[C@@H](c2c(F)cc(/C=C/C(=O)O)cc2F)N1C12CC(C1)C2	MCF7	RNA-seq, refers to: LIPH mRNA	1 µM, 24 h, E2-suppressed gene	baseline: DMSO vehicle	log2 fold change	1.36
O=C(C[Se]C(=O)c1cc2ccccc2o1)Nc1cccc(C(F)(F)F)c1	NCI60 melanoma subpanel	total growth inhibition, inhibitor	five-dose		mean TGI	3340 nM
CCN(CC)CC(=O)Nc1cccc(-n2cc(-c3ccc4ccc(-c5cn(-c6cccc(NC(=O)CN(CC)CC)c6)nn5)cc4c3)nn2)c1	RCC4	PCR angiogenesis array, refers to: EPHB4	5 x IC50, 4 h, normoxia	baseline: untreated	fold regulation	-1.4
COc1ccccc1-c1ccncc1C(=O)Nc1nnc(OCc2ccc(Cl)cc2)s1	MDA-MB-231		3 µM, single replicate	baseline: untreated	colony survival	98.5% and 81.5%
CC(C)Cc1ccc(C(C)C(=O)[Se]CC(=O)Nc2cccc(C(F)(F)F)c2)cc1 (stereo not shown)	NCI60 leukaemia subpanel	NCI60 five-dose screen			mean TGI	4440 nM
C=CC(=O)Nc1cc(Nc2nccc(-c3c(-c4ccc(CCCC)cc4)n(C)c4ccccc34)n2)c(OC)cc1N(C)CCN(C)C	NCI-H1975	cell growth or viability, MTT	0.5 µM, 72 h		inhibition	67.2%
C=C(NC(=O)c1csc(-c2ccc(NC(=O)CCCCCBr)cc2)n1)C(=O)NC(=C)C(=O)OC	H-MESO-1	cell viability, crystal violet	24 h exposure, 48 h total		EC50	850 nM
O=C(C[Se]C(=O)c1ccc2ccccc2c1)Nc1cccc(C(F)(F)F)c1	NCI60 CNS subpanel	NCI60 five-dose screen			mean TGI	3580 nM
CCc1n(CC(=O)O[C@@H]2C[C@H](C)CC[C@H]2C(C)C)c2ccccc2[n+]1C	HTS cells (mouse)	gene microarray, refers to: TRIB3	1 µM, 24 h, unit not given	baseline: untreated	mRNA level	10
CCCC[N+]1=c2cc3c4cc2[O][Mn-2]1(=[C]=O)(=[C]=O)(=[C]=O)[n+]1ccc(cc1)C(=O)OCCOC(=O)c1cc[n+](cc1)[Mn-2](=[C]=O)(=[C]=O)(=[C]=O)([O]3)[N+]=4CCCC	HCT-15	MTT	50 µM, 48 h, photolysed compound		viability reduction	~92%

SMILES	cell line	assay	setting	how to read	endpoint	value
CC(=O)Oc1ccccc1C(=O)[Se]CC(=O)Nc1cccc(C(F)(F)F)c1	NCI60 melanoma subpanel	cell growth, inhibitor	five-dose		GI50	2150 nM
O=C(NC1CCCC1)c1cccc(N2Cc3cn(Cc4ccc(F)cc4)nc3C2)c1	HEK293 expressing GluA1 and GluA2	glutamate excitotoxic cell death, CellTox Green	together with: glutamate		IC50	3.5 nM
COc1cc(N(C)CCN(C)C)c(NC(=O)/C=C/c2ccc(C(C)=O)cc2)cc1Nc1nccc(-c2cn(C)c3ccccc23)n1	NCI-H1975	cell growth or viability, MTT	0.5 µM, 72 h		inhibition	69%
COC(=O)c1cc(NC2=NC(=O)C(=Cc3ccc(N(C)C)cc3)S2)ccc1OC(C)=O	MCF7	GC-MS, refers to: L-Cysteine	1 µM	baseline: DMSO	metabolite level	-1.51 fold change
O=C(C[Se]C(=O)c1ccccc1Nc1ccccc1)Nc1cccc(C(F)(F)F)c1	NCI60 melanoma subpanel	total growth inhibition, inhibitor	five-dose		mean TGI	3190 nM
COc1ccc2c(c1)OC1=C(C(=O)CCC1)C2c1c[nH]c2ccccc12 (stereo not shown)	3T3-L1 preadipocytes	adipogenesis, Oil Red O staining	IC20, 14 days		mean lipid content	0.498 OD492
C=CC(=O)Nc1cc(Nc2nccc(-c3c(-c4ccc5cc(OC)ccc5c4)n(C)c4ccccc34)n2)c(OC)cc1N(C)CCN(C)C	NCI-H1975	cell growth or viability, MTT	0.5 µM, 72 h		inhibition	59.9%
CNS(=O)(=O)Nc1nccc(Cc2c(C)c3ccc(Oc4ncccc4F)cc3oc2=O)c1F	WiDr	cell viability	7 days		IC50	7.07 nM
CO[C@@H]1[C@@H](OC(N)=O)[C@@H](O)[C@H](Oc2ccc3c(O)c(NC(=O)c4ccc(O)c(CC=C(C)C)c4)c(=O)oc3c2C)OC1(C)C	HCT-116 parental		150 µM, replicate 1		colony count	19
CCOC(=O)c1ccc(NC(=O)C(C#N)=C2C(=O)c3ccccc3C2=O)cc1	HepG2	cell growth or viability, MTT	3.125 µM, 24 h		viability	96.5%
O=C(c1ccnc(N2Cc3cnn(Cc4ccc(F)cc4)c3C2)n1)N1CCOCC1	HEK293 expressing GluA1 and GluA2	glutamate excitotoxic cell death, CellTox Green	together with: glutamate		IC50	18 nM
O=C(C[Se]C(=O)c1cc2ccccc2[nH]1)Nc1cccc(C(F)(F)F)c1	NCI60 melanoma subpanel	cell growth, inhibitor	five-dose		GI50	1380 nM
Cn1ncc2cc(-c3cncc(Cl)c3N3CCC4(CCNC4=O)CC3)ccc21	LS174T	gene expression, microarray, refers to: HDAC2 mRNA	concentration not given, 24 h	baseline: untreated cells	log2 fold change	-2.01
COc1cc(N(C)CCN(C)C)c(NC(=O)/C=C/c2ccc3c(c2)OCO3)cc1Nc1nccc(-c2cn(C)c3ccccc23)n1	NCI-H1975	cell growth or viability, MTT	0.5 µM, 72 h		inhibition	73.7%
CCC(=CCc1c(O)cc2c(c1O)C(=O)CC(c1ccc(O)cc1)O2)CC (stereo not shown)	HeLa	annexin V/PI	24 µM, 48 h		early apoptotic cells	0.29 ± 0.02%
Cn1c(=O)n(C2CCC(=O)NC2=O)c2ccc(C3CCN(CC(=O)Nc4cccc(CS(=O)(=O)N5CC[C@H](Nc6cccc(-c7sc(C(=O)O)c(OCC(=O)O)c7Cl)c6)CC5(C)C)c4)CC3)cc21 (stereo partly shown)	B16-F10	HTRF, refers to: phospho-STAT1 Tyr701	0.041 µM, together with: IFN-γ	baseline: min-max normalised	pSTAT1 level	58% and 56.1% and 58.8% and 64.1% and 64.7% and 64.5%
Cc1cc(Cl)cc(-c2ccnc3cc(CN4C(=O)C5C(C4=O)C5(C)C)sc23)c1C[C@@H]1CNCCO1 (stereo partly shown)	CHP-212 parental (wild-type USP7)	annexin V-PI flow cytometry	0.3 µM, 48 h		early apoptotic cells (annexin V+/PI-)	21.8% and 17.8% and 14%
COc1ccc(NC(=O)c2ccc3[nH]c(-c4ccc(N(C)C)cc4)nc3c2)cn1	HCEC-hTERT	IncuCyte	concentration not given, 16 h		dead cell to confluence ratio	8.16 and 3.18 and 87.9
O=C(C[Se]C(=O)c1ccc2ccccc2n1)Nc1cccc(C(F)(F)F)c1	NCI60 CNS subpanel	NCI60 five-dose screen			mean TGI	3450 nM
CCCCCCCCCCCC(=O)N[C@H](CO)C[C@@H](O)c1ccccc1	HeLa	CERT activity, HPLC-MS/MS lipidomics, refers to: sphingomyelin 22	1 µM, 24 h, not cell-number normalised		sphingomyelin level	47100 pmol/sample and 48800 pmol/sample and 54200 pmol/sample
C=CC(=O)N1[C@H](c2ccc3c(c2)OCO3)c2[nH]c3ccccc3c2C[C@@H]1C(=O)NC1CC1	rat DRG neurons		0.01372 µM, 48 h, together with: vincristine 40 nM		mean neuron degeneration	78.4%

Excerpt of the above:
SMILES	cell line	assay	setting	how to read	endpoint	value
O=C(c1ccnc(N2Cc3cnn(Cc4ccc(F)cc4)c3C2)n1)N1CCOCC1	HEK293 expressing GluA1 and GluA2	glutamate excitotoxic cell death, CellTox Green	together with: glutamate		IC50	18 nM
O=C(NC1CCCC1)c1cccc(N2Cc3cn(Cc4ccc(F)cc4)nc3C2)c1	HEK293 expressing GluA1 and GluA2	glutamate excitotoxic cell death, CellTox Green	together with: glutamate		IC50	3.5 nM
Cn1ncc2cc(-c3cncc(Cl)c3N3CCC4(CCNC4=O)CC3)ccc21	LS174T	gene expression, microarray, refers to: HDAC2 mRNA	concentration not given, 24 h	baseline: untreated cells	log2 fold change	-2.01
CNS(=O)(=O)Nc1nccc(Cc2c(C)c3ccc(Oc4ncccc4F)cc3oc2=O)c1F	WiDr	cell viability	7 days		IC50	7.07 nM
Cn1c(=O)n(C2CCC(=O)NC2=O)c2ccc(C3CCN(CC(=O)Nc4cccc(CS(=O)(=O)N5CC[C@H](Nc6cccc(-c7sc(C(=O)O)c(OCC(=O)O)c7Cl)c6)CC5(C)C)c4)CC3)cc21 (stereo partly shown)	B16-F10	HTRF, refers to: phospho-STAT1 Tyr701	0.041 µM, together with: IFN-γ	baseline: min-max normalised	pSTAT1 level	58% and 56.1% and 58.8% and 64.1% and 64.7% and 64.5%
CCc1n(CC(=O)O[C@@H]2C[C@H](C)CC[C@H]2C(C)C)c2ccccc2[n+]1C	HTS cells (mouse)	gene microarray, refers to: TRIB3	1 µM, 24 h, unit not given	baseline: untreated	mRNA level	10
